Results gathered from unrelated publications.
Compare with care: the assays were run in different laboratories. Numbers after ± are the reported error.

| SMILES | system | setting | volume of distribution [L/kg] |
| --- | --- | --- | --- |
| Nc1c(S(=O)(=O)O)cc(Nc2cccc(S(N)(=O)=O)c2)c2c1C(=O)c1ccccc1C2=O | C57BL/6J mouse, male | intravenous, 5.0 mg/kg | 8 to 14 |
| CC(C)C[C@H](NC(=O)[C@H](C)NC(=O)[C@H](C)NC(=O)[C@H](CCC(N)=O)NC(=O)[C@H](C)NC(=O)[C@H](CO)NC(=O)[C@H](CC(C)C)NC(=O)[C@H](C)NC(=O)[C@@H](NC(=O)[C@H](C)NC(=O)[C@H](Cc1ccc(O)cc1)NC(=O)[C@H](CO)NC(=O)[C@H](CCCCN)NC(=O)[C@H](C)NC(=O)[C@H](Cc1ccccc1)NC(=O)[C@H](CCCCN)NC(=O)[C@H](C)NC(=O)[C@H](Cc1ccccc1)NC(=O)[C@H](CCCCN)NC(=O)[C@H](CCCCN)NC(=O)[C@H](C)NC(=O)[C@H](Cc1ccccc1)NC(=O)[C@H](CCCCN)NC(=O)[C@H](C)NC(=O)[C@H](Cc1ccccc1)NC(=O)[C@H](CCCCN)NC(=O)[C@H](CCCCN)NC(=O)[C@H](C)NC(=O)[C@H](Cc1ccccc1)NC(=O)[C@H](CCCCN)NC(=O)[C@H](C)NC(=O)[C@H](Cc1ccccc1)NC(=O)[C@@H](N)CCCCN)C(C)C)C(=O)N[C@@H](C)C(=O)N[C@@H](CCCNC(=N)N)C(=O)N[C@@H](CCCNC(=N)N)C(=O)O | C57BL/6 mouse, male | intravenous, 0.8 mg/kg | 0.17 ± 0.03 |
| Oc1cc(F)ccc1Oc1ccccc1 | CD-1 mouse, plasma | subcutaneous, 100 mg/kg | 33 ± 13 |
| CN1CCC(N[C@@H]2CCc3[nH]c4c(C(N)=O)ccc(-c5ccccc5Cl)c4c3C2)CC1 | BALB/c mouse, plasma | intravenous, 2 mg/kg | 120 ± 35.9 |
| NC(=O)c1c(F)ccc(OCc2nc3cc(Cl)cnc3s2)c1F | mouse, plasma | intravenous, 3 mg/kg | 1.06 |
| CO[C@H]1/C=C/O[C@@]2(C)Oc3c(C)c(O)c4c(c3C2=O)C2=NC3(CCN(CC(C)C)CC3)NC2=C(NC(=O)/C(C)=C\C=C\[C@H](C)[C@H](O)[C@@H](C)[C@@H](O)[C@@H](C)[C@H](OC(=O)c2cccc(F)c2)[C@@H]1C)C4=O | CD-1 mouse | 10 mg/kg, single dose | 1.9 |
| CCS(=O)(=O)c1ccccc1C(=O)N1CCN(c2nc3ccc(F)cc3s2)C[C@@H]1C | mouse | oral, 3 mg/kg | 7.4 ± 1.1 |
| CO[C@H]1/C=C/O[C@@]2(C)Oc3c(C)c(O)c4c(c3C2=O)C2=NC3(CCN(CC(C)C)CC3)NC2=C(NC(=O)/C(C)=C\C=C\[C@H](C)[C@H](O)[C@@H](C)[C@@H](O)[C@@H](C)[C@H](OC(=O)c2cccnc2)[C@@H]1C)C4=O | CD-1 mouse | 10 mg/kg, single dose | 1.6 |
| CCCCCCc1ccc(Oc2ccccc2C#N)c(O)c1 | CD-1 mouse, plasma | subcutaneous, 100 mg/kg | 40 ± 12 |
